# Experimental data of several laboratories.
# Numbered parts are unrelated; each lists some results of a single study. Positions count from the first letter of the parent shown.

# Block 1
# Target: Sal-like protein 4, full length isoform B (SALL4, Homo sapiens, UniProt Q9UJQ4-2, residues 1-616)
# Method: universal PBM
# Form: double-stranded DNA, one strand shown
# Sample: in vitro
# Concentration: not given
# Notes: 8-mer, flanks averaged, mean of replicates
# Reading: higher = stronger binding
Oligonucleotide,E-score
TCCCAAAA,0.133
CACTGTTC,0.00957
CACTGGAA,-0.0895
ACGACTGC,-0.126
CTTGCGGC,-0.269
CAGACGCA,-0.166

# Block 2
# Target: CCNB2, cyclin fold, Cln2 fusion (human)
# Method: yeast growth competition, sequencing
# Sample: yeast
# Notes: weak parent motif
# Relative to: not given
# Reading: higher = stronger binding
# Parent: PKN2 docking peptide (human); VSAVQKLDFSDTM; partner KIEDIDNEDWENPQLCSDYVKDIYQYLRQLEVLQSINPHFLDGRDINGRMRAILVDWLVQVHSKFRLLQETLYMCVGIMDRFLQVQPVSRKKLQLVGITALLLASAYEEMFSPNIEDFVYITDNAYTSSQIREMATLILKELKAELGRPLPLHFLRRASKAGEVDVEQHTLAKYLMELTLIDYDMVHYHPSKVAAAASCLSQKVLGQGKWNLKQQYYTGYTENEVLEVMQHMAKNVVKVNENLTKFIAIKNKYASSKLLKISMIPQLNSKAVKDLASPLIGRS
Variant,normalised enrichment score
VSAVQKLDFMDTM [S10M],-0.261
MSAVQKLDFSDTM [V1M],0.0416
VSAMQKLDFSDTM [V4M],0.0974
VSAVQKHDFSDTM [L7H],-0.0261
VSAVQKLDQSDTM [F9Q],-0.297
VSAVQKLDFSDTI [M13I],0.26
VSAVQKPDFSDTM [L7P],-0.505

# Block 3
# Target: Histone acetyltransferase KAT6A, winged helix 1, GST fusion (KAT6A, Homo sapiens, UniProt Q92794, residues 1-85)
# Method: protein binding microarray
# Form: double-stranded DNA, one strand shown
# Sample: in vitro
# Concentration: not given
# Notes: 8-mer, flanks averaged, mean of 2 arrays, mostly near background
# Relative to: not given
# Reading: higher = stronger binding
# Construct (chain): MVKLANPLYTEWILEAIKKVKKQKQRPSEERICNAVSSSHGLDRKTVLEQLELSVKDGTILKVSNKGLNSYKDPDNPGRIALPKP
Oligonucleotide,E-score
TCACGCGA,0.136
GTGAACAC,-0.03
CTTCTGCA,-0.0934
CGTTCTTA,0.00145

# Further values, each from its own experiment
Molecule,target,assay,system,conditions,how to read,endpoint,result
"PhoQ, residues 284 288 289 292 302 303 SACGEM","PhoP, residues 12 14 15 18 19 LWHVM (Escherichia coli, UniProt P23836)","Sort-seq, measured: YFP reporter",E. coli,"PhoQ-PhoP variant library, added: 10 µM Mg2+","relative to: high Mg2+ state, higher = stronger signaling",fold induction,20.6
